Assay results of several laboratories.
Each numbered part is a random draw from the data of one study; scales do not carry over between parts. Substitutions count along the parent as printed.

Series 1
Target: Histone acetyltransferase KAT6A, both winged helices, GST fusion (KAT6A, Homo sapiens, UniProt Q92794, residues 1-181)
Technique: protein binding microarray
Molecule type: double-stranded DNA, one strand shown
Sample: in vitro
Concentration: not given
Setting: 8-mer, flanks averaged, mean of 2 arrays, mostly near background
Reference: not given
Direction: higher = stronger binding
Target sequence (chain): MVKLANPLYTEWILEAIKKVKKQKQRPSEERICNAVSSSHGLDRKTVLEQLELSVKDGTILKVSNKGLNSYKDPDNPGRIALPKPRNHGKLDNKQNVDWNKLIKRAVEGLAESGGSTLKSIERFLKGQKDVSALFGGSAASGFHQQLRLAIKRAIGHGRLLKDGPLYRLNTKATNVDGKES
| Strand | E-score |
| --- | --- |
| GAATACAC | -0.0389 |
| AACAGGAG | -0.23 |
| AATGAGCT | -0.163 |
| ACATGCGT | -0.00275 |
| CACCGTCG | 0.22 |
| GGTTGTTA | -0.00106 |
| AATAGGGA | -0.183 |
| CCCGCAAC | 0.202 |
| CACGTCCG | 0.0851 |
| CAGCCGCA | 0.0379 |
| AAGCATCT | -0.0759 |
| TAAACCTA | -0.139 |
| GGGCTTTA | -0.0128 |
| CCCGTCCC | 0.14 |
| GCGAGAGA | -0.0182 |
| ACGGCGGC | 0.332 |
| CGTAACGA | 0.0136 |
| ATTCAACC | -0.0668 |
| GGGCTTAA | -0.117 |
| AACCCACA | -0.0796 |
| GACAGCCC | 0.0257 |
| AGACGAAT | -0.095 |
| CTGATTAA | -0.088 |
| CATGGCCC | -0.0719 |
| AGGTCAGC | 0.058 |

Series 2
Target: Interferon regulatory factor 5, full length, phosphomimetic (IRF5, Homo sapiens, UniProt Q13568-2, residues 1-514, S451D/S453D/S456D/S462D)
Technique: protein-binding microarray
Molecule type: double-stranded DNA, one strand shown
Sample: in vitro
Concentration: 940 nM top
Setting: 60-bp whole probe
Added: salmon DNA 0.4 mg/ml
Reference: random background probes
Direction: higher = stronger binding
Shared flanks, not repeated: GCCTAGCAC … GTCTTGATTCGCTTGACGCTGCTG
| Strand | fitted relative affinity [z-score] |
| --- | --- |
| TCATCTTTAACATATTCTACTGTGCTA | 1.44 |
| CCTACCGCCCTTACCGCCGCGTGCTAG | 0.362 |
| GACGGTCTCCCACTGCTGACGTGCTAG | -0.0046 |
| TCAGTTTGCCTCCTTCAGACTGTGCTA | 0.295 |
| GACGGTCCCCTTATCCTGACGTGCTAG | 0.439 |
| TTAGGTTTCCATCTCCTTTAGTGCTAG | 2.04 |
| TTAGGTATCGCGTATCGGTTAGTGCTA | 2.96 |
| TTAGGACTGCTTTTCCATTAGTGCTAG | -0.255 |
| GATTCTCCTGCCTCAGCCTCGTGCTAG | 0.128 |
| TCCTTTTAATTTTTAACGAGGTGCTAG | 0.154 |
| GACGAACTGGGGACTCGAGACGTGCTA | -0.0835 |
| GTCGAACTGAGACTGGAGACGTGCTAG | -0.138 |
| TCACTTTTTAAGATCTGACTGTGCTAG | 0.283 |
| CCCTTATTCTAGCCTCCATTTGTGCTA | 1.39 |
| GACGATTTCGGACTGGGGACGTGCTAG | 0.163 |
| GGGGTTTCGGATGGGATGTCGTGCTAG | 6.62 |
| TTAGGACTGGACACAGGGTTAGTGCTA | -0.5 |
| TTAGGTTTCGGTTCCGGTCAGTGCTAG | 14.8 |
| TTAGATTTCTGTCTCGATTAGTGCTAG | 3.08 |

Series 3
Target: RNA binding protein fox-1 homolog 2, RRM domain, GST-SBP tag (RBFOX2, Homo sapiens, UniProt O43251-10, residues 100-194)
Technique: RNA Bind-n-Seq
Molecule type: RNA
Sample: in vitro
Concentration: 365 nM
Setting: natural RNA segment, single round, ends assumed
Reference: no-protein control
Direction: higher = stronger binding
Shared flanks, not repeated: GGGAGUUCUACAGUCCGACGAUC … UGGAAUUCUCGGGUGCCAA
Construct (chain): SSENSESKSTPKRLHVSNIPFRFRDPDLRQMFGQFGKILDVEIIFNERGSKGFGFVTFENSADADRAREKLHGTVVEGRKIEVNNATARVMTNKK
| Strand | RBNS enrichment (R) |
| --- | --- |
| GGGGCACCAGUCUUGGCUUUUAGGAAGCUCUGUUUAACUUACACAUAAGUUCUUAAGAUGUGUUGGCAGUAUUGCGUCACCCACGGCCGUCCCGGGGGCUGAACGUGUGG | 0.515 |
| CUUUGUUGCUUCCUUCCCUGGAGAGCAACACUACCUCCUGGGCUUUACCAAGCACCACCCUAACCUCUAAAAUCAGAGUUCAGCUGAGCUAUUAGUAGUGGGUGGUCACC | 0.225 |
| UUAAAAUGCUAAAUAUUGCAAAUUUAAGCUUUGUCAGUAUAUGGAAAAGUUGAAGGGAAAAUACUGGAAUGCUUCUUCAAAGGUUAAAAAAUAACCGAGUCUUUUGGUAA | 0.948 |
| UCGGCUCGCCUCUGCUCCUUUCAUCUAGAAAGAAGCCACUGACCCUGACAGCCCACGGCGGGUACACUGAGCAGCUGCAUUGGUGCUGUCACUUUUUUAAGGCUUUCUGU | 0.265 |
| GCUGGGGCCCCGCCUCCUUUCUGUUUUAUUUUUGAGGAAAUAAAAUAACCAAGUGCUAAAUCUUGUAGCUCUGGGGCUGCCUCGGUUUUCCUAAGGAGCCAGGGGUUCUG | 0.48 |
| AAAGCAAAACUCUUCUAAGUCCCACUCGUGAAUGGCAAUUAGAGAAAGGACUGACAGUGGCGGUGCCCCAUAGGAUGUCAUAUUGAGGCCCAAACUUGAUUGGAGAAUUU | 1.91 |
| ACUGAUAUGGAAACGUACUUUUGUAUUUCAUGCUCAAGAGGAGUUUUGUUUUUGCUUUUUGUUGUUGUUUUGUUGUUGUUAUUUUGUUUGUUUAACAUGGAGUCUCACUC | 4.22 |
| AAGAGCUUAACUUUGUCUUUUGGGUGAGUAGCUAUAGGUUUGAGAGAGGCUGGCUACUCCUAGUUCCUGUGCUUCUUCCCAUCUCCUGUGAUCCCCCUCUCCCAUUUAUU | 0.288 |

Series 4
Target: CCNA1, cyclin fold, Cln2 fusion (human)
Technique: yeast growth competition, sequencing
Sample: yeast
Setting: weak parent motif
Reference: not given
Direction: higher = stronger binding
Starting sequence: CDAN1 docking peptide (human); RGARSQLFPPTEA; partner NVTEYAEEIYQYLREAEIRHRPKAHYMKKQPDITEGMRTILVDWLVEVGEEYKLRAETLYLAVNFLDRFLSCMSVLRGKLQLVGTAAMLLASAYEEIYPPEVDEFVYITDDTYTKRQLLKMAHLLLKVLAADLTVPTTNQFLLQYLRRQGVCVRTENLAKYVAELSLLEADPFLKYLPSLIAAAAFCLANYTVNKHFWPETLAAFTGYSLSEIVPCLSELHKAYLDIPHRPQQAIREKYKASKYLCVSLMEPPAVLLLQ
| Substitution | normalised enrichment score |
| --- | --- |
| S5A | 0.709 |
| T11A | 0.25 |
| G2A | 0.163 |
| P10A | 0.414 |
| R4A | 0.0398 |
| Q6A | 0.0638 |

For quick reference, copied from above (series 2):
| Strand | fitted relative affinity [z-score] |
| --- | --- |
| TCAGTTTGCCTCCTTCAGACTGTGCTA | 0.295 |
| GACGGTCCCCTTATCCTGACGTGCTAG | 0.439 |
| TTAGGTTTCCATCTCCTTTAGTGCTAG | 2.04 |
| TTAGGTATCGCGTATCGGTTAGTGCTA | 2.96 |
| TTAGGACTGCTTTTCCATTAGTGCTAG | -0.255 |
| GATTCTCCTGCCTCAGCCTCGTGCTAG | 0.128 |
| TCCTTTTAATTTTTAACGAGGTGCTAG | 0.154 |
| GACGAACTGGGGACTCGAGACGTGCTA | -0.0835 |
| GTCGAACTGAGACTGGAGACGTGCTAG | -0.138 |
